Experimental data pooled from the literature.
Numbered parts are unrelated; each lists some results of a single study. Positions count from the first letter of the parent shown.

Study 1
Target: RNA binding protein fox-1 homolog 2, RRM domain, GST-SBP tag (RBFOX2, Homo sapiens, UniProt O43251-10, residues 100-194)
Method: RNA Bind-n-Seq
Form: RNA
Medium: in vitro
Tested at: 365 nM
Setting: natural RNA segment, single round, ends assumed
Baseline: no-protein control
Reading: higher = stronger binding
Shared flanks, not repeated: GGGAGUUCUACAGUCCGACGAUC … UGGAAUUCUCGGGUGCCAA
Residues (chain): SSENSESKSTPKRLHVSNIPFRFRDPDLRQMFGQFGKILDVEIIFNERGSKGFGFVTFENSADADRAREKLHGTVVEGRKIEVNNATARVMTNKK
Strand	RBNS enrichment (R)
CUGCUUUCUUCUUCCGGCUGGUACAGAAUCUGUGUCCAUCAUUUUUCACUACAGGUCUUGUUAAAAUUCUUUGCAGCACUUCGUGUCCCCUCACGUCCCAUGUGCUCAGA	0.463
CACCUUCCUCCCGAUUUGUUCACCUAUUUUGUGCUUUAAAUCUCAAUAAAAUACUUACUGAGGGAAAGGCUUGUUUUGAGUUUAUUGCAUAUGCCCACUUAGGACCAGAU	0.494
CAGGCGGGACUCGUGUCCCAGAGAGGAAGGGGCUGCUGAGGUCUGAUGGGGCCCUUCCUCCGGGUGACCCCACAGGGCCUUUCCAAGCCCCCAUUUGAGCUGCUCCUUCC	0.2
AGCGUCCUUACCUUCUCUCAUUCCCCAGCUCUCAUUCUGAGCCUUUGGUCCCUGACCUUAUGGCCAUCUUGGAGGUCAGUUGUUCCCUGUGGUUGACUGAACUGCUGUUG	0.277
UGUCACUAAAGCGGGCCUUUUGAUAUAUUAAGUUUUUUAAAAGCAAAACAAGUUUAGAUUUUAAUCAGAUUUGUAGGGUUUCUAACUUUACAGAAUUGCCUGUUUGUUUC	0.893
GCCACAGGACAGUCACUAGCACCUACUGGAAACCUCUUUGUGGGAACAUGAAGAAAGAGCCUUUGGGAGAUUCCUGGCUUUCCAUUAGGGCUGAAAGUACAACGGUUCUU	0.254
UUCAGUAGUGCCAGCAAGUGGGGGAAACUUUCAGUAUUGCGCUAGGUCAACACUUCCUGCUGCAUUUCCUUCCCUUUGCACAGCUUGAAGAAAUAGAGUAGACAGAAUCA	0.613
CUCCCGAGUGCUGGAGCUAAUGGGGAUCACCACCACAGCCCAGCUCAAGUUCUUUCUCUUGGUUAGUCCAGCACACCACUUUGUUCUCUUGGGCCGUAUCUGCUGUGUCA	0.562
UGUCCCUCCUCACAAGUGCUUAGUUUCUGUUAACUAGAAGUAUCAUUCUUGGGUGGAAAUAGGUCUCCGUUUACCUGAGCUGAGGGUUGUUUGGAAAAUAAGAGCCAAUU	0.356
GGCGAGCGGGUAGGCCCAAGGCUAUUGUCGUCGCUGCUGCCAUGGCUUUUUCAUUGAGGGCCUAAAGUAAUCGCGCUAAGAAUAAAGGGAAAACGGCGUCGCCCUCAUUU	0.465
UCUAUCAGGCCACCAGCAGGAAUUGAAAAUGUUUUCACAAAAAUCCUUUUCCUUAGAAAUAAAAGCUGGUGACAGAGAUGGUUUCCUUGUACCGAUAAAAACAAAACCAA	0.342
UCAGGAUUGGGAAUUGUCUUUAGUGCCGGCUGUGGAGCAAAAGGCAGCUCACCCCUGGGCAGGCGGUCCCCAUCCCCACCAGCUCGUUUUUCAGCACCCCCACCCACCUC	1.59

Study 2
Target: UBE2E2 UBC core domain (UniProt Q96LR5)
UniProt Q96LR5, sequence (whole entry, looked up): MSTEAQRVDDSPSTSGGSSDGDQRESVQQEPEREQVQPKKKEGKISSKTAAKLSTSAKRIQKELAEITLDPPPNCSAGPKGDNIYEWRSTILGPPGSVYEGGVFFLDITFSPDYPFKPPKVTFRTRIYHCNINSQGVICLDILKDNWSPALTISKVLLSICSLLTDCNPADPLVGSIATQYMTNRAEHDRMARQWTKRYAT
Method: yeast two-hybrid
Medium: yeast
Setting: mostly zero background
Baseline: not given
Reading: higher = stronger interaction
B1: RNF19A RING domain (UniProt Q9NV58); chain ISKQIGDFIECPLCLLRHSKDRFPDIMTCHHRSCVDCLRQYLRIEISESRVNISCPECTERFNPHDIR
B2: MDM4 RING domain (UniProt O15151); chain MEDCQNLLKPCSLCEKRPRDGNIIHGRTGHLVTCFHCARRLKKAGASCPICKKEIQLVIKVF
B3: UBOX5 RING domain (UniProt O94941); chain EQPGSILGPECASCKRVFSPYFKKEPVYQLPCGHLLCRPCLGEKQRSLPMTCTACQRPVASQDVLR
B4: RFWD3 RING domain (UniProt Q6PCD5); chain ASMDEEEGDTCTICLEQWTNAGDHRLSALRCGHLFGYRCISTWLKGQVRKCPQCNKKARHSDIVV
B5: DTX2 RING domain (UniProt Q86UW9); chain EELKVPPDEDCIICMEKLSTASGYSDVTDSKAIGSLAVGHLTKCSHAFHLLCLLAMYCNGNKDGSLQCPSCKTIYGEKTGTQ
B6: SH3RF1 RING domain (UniProt Q7Z6J0); chain DESALLDLLECPVCLERLDASAKVLPCQHTFCKRCLLGIVGSRNELRCPECRTLVGSGVEEL
B7: MAP3K1 RING domain (UniProt Q13233); chain NSIKDEEEQMCPICLLGMLDEESLTVCEDGCRNKLHHHCMSIWAEECRRNREPLICPLCRSKWRSHDFYS
Molecule	lacZ reporter activity
AMYLQENGIDCPKCKFSYALARGGCMHFHCTQCRHQFCSGCYNAFYAKNKC (RNF31 RING domain (UniProt Q96EP0))	0
B1 (RNF19A RING domain)	0
B2 (MDM4 RING domain)	0
PEDRESLKSACVVCLSSFKSCVFLECGHVCSCTECYRALPEPKKCPICRQAITRVIPLY (MUL1 RING domain (UniProt Q969V5))	0
B3 (UBOX5 RING domain)	0
YQNEVDDDLVCHICLQPLLQPLDTPCGHTFCYKCLRNFLQEKDFCPLDRKRLHFKLCKK (LNX2 RING domain (UniProt Q8N448))	0
KLRKLKEAMLCMVCCEEEINSTFCPCGHTVCCESCAAQLQSCPVCRSRVEHVQHVY (MYLIP RING domain (UniProt Q8WY64))	0
B4 (RFWD3 RING domain)	0
B5 (DTX2 RING domain)	0
B6 (SH3RF1 RING domain)	0
B7 (MAP3K1 RING domain)	0

Study 3
Target: CCNB2, cyclin fold, Cln2 fusion (human)
Method: yeast growth competition, sequencing
Medium: yeast
Setting: weak parent motif
Baseline: not given
Reading: higher = stronger binding
Starting sequence: CDKN1A docking peptide (human); SKACRRLFGPVDS
Substitution	normalised enrichment score
S13A	0.489
R5Y	0.124
P10V	0.0691
R5A L7A	0.088
D12V	0.093
C4W	0.334
G9A	0.593
V11H	0.221
V11F	0.0951
R6W	0.57
P10H	0.125
D12W	0.55
L7M	0.54
R6G	0.215
R5D	-0.632
F8N	-0.185
V11Q	0.187
P10Q	0.136
G9D	-0.108
V11P	-0.145
A3P	0.928
R6E	-0.257

Study 4
Target: Ras GTPase-activating protein-binding protein 1, RRM domain (G3BP1, Homo sapiens, UniProt Q13283)
UniProt Q13283, sequence (whole entry, looked up): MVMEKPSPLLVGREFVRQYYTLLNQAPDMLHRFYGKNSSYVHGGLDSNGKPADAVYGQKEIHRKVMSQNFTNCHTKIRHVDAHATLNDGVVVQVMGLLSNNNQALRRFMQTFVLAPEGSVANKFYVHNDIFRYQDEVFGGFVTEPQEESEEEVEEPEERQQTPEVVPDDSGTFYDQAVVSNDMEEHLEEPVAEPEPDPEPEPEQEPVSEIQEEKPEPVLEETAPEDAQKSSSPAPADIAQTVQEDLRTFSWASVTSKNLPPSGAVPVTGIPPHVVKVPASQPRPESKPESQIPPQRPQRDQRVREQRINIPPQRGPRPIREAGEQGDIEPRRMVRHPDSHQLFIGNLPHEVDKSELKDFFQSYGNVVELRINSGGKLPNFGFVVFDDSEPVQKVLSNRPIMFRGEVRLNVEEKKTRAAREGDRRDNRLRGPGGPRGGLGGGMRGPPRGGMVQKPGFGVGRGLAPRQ
Method: RNA Bind-n-Seq
Form: RNA
Medium: in vitro
Tested at: 1 µM
Setting: whole 134-nt RNA, ends assumed
Together with: 150 mM KCl
Baseline: input library
Reading: higher = stronger binding
Shared flanks, not repeated: GGGAGUUCUACAGUCCGACGAUC … UGGAAUUCUCGGGUGUCAAGG
Strand	log2 enrichment
CUCAAGUCCUGUGCUACACAUCGUAUGUACCGAAUCGGGCCGGCCGGCCGGGGAAAGUAUUAUGUUACGCCGUUCGGAUCUGCACUUCCA	-0.299
GCAGGAAGUACAAACAAAUGGAAAUGCUUCGGAUAGUGGCAGGGGUGGGGGUUGCUAAGGAAAGGGUGGGAUGGGAGUGGGUAAAGAGUU	0.81
AAGUCCUGUGCUACACAUCGUAUGUACCGAAUCGGGGUUUUGGUUUUGGGGUUUUGGAAAGUAUUAUGUUACGCCGUUCGGAUCUGCACU	-0.233
UGGGAGGUGGAUUUUGUUUAUUUUUUUAGCUCAUUUCCAGGGGUGGGAAUUUUUUUUUAAUAUGGGUCAUGAAUAAAGUUGUUUUUGAAA	1.66
GUCCUGUGCUACACAUCGUAUGUACCGAAUCGGAAAAAGGUUUUUUUGGUUUUUUUGGAAAGUAUUAUGUUACGCCGUUCGGAUCUGCAC	-0.458
CAAGUCCUGUGCUACACAUCGUAUGUACCGAAUCGGGAAAGGGAGGGAAAAAGGGAAAGUAUUAUGUUACGCCGUUCGGAUCUGCACUUC	0.892
UAACUUUAGAGGAGGAUCUGAUGGAUAUGGCAGUGGACGUGGAUUUGGGGAUGGCUAUAAUGGGUAUGGAGGAGGACCUGGAGGUGGCAC	-0.161
UAACUUUAGAGGAGGAUCUGAUGGAUAUGGCAGUGGACGUGGAUUUGGGGAUGGCUAUAAUGGGUAUGGAGGAGAACCUGGAGGUGGCAA	-0.424
UUCCUCAAGUCCUGUGCUACACAUCGUAUGUACCGAAUCGGGUGGUGGUGGAAAGUAUUAUGUUACGCCGUUCGGAUCUGCACUUCCAGC	-0.21
CUGUGCUACACAUCGUAUGUACCGAAUCGGGGCCCCCCCGGGCCCCCCCGGCCCCCCCGGGGAAAGUAUUAUGUUACGCCGUUCGGAUCU	-0.549
UCAAGUCCUGUGCUACACAUCGUAUGUACCGAAUCGGGUGGGUUUUUGGGUGGGAAAGUAUUAUGUUACGCCGUUCGGAUCUGCACUUCC	0.369
CCUGUGCUACACAUCGUAUGUACCGAAUCAAAGUGUGUGUGUGUGAAAUGUGUGUGUGAAAAAAGUAUUAUGUUACGCCGUUCGGAUCUG	-0.129
UCCUGUGCUACACAUCGUAUGUACCGAAUCGGGGUUUUUGGGGUUUGGGGAAAAAGGGGAAAGUAUUAUGUUACGCCGUUCGGAUCUGCA	1.1
UGGGAGGUGGAUUUUGUUUAUUUUCUUAGCUCAUUUCCAGGGGUGGGAAUUUUUUUUUAAUAUGUGUCAUGAAUAAAGUUGUUUUUGAAA	1.73
